Measurements of several laboratories.
Each numbered part is a random draw from the data of one study; scales do not carry over between parts.

Sample 1 — method: RNA Bind-n-Seq; molecule type: RNA; sample: in vitro; tested at: 365 nM; baseline: no-protein control; direction: higher = stronger binding
Target: RNA binding protein fox-1 homolog 2, RRM domain, GST-SBP tag (RBFOX2, Homo sapiens, UniProt O43251-10, residues 100-194)
Notes: natural RNA segment, single round, ends assumed
Constant ends, left off below: GGGAGUUCUACAGUCCGACGAUC … UGGAAUUCUCGGGUGCCAA
Target sequence (chain): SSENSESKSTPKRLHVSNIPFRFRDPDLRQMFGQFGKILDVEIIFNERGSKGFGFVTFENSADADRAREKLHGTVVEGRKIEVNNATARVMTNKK
Under “RBNS enrichment (R)”, `CAUCUGCAGCCAGAAGUCACCCCAAUACAGUACUUCUAAGGAGGGGUCAGGUAAAGCAUGAGAGAGACUCUCAGCGCCGCCGCUGCCGCUGCCAGGGUGAUCAUUCAUCA` is recorded as 1.37.
`AAUUUAGUAACUUAGAUGCUUCCAGCACAUACGUAGGUAGCUACCCCAGCCGGUUUGGAUUACAGGCCUGUGCUGGAACAUCAUCUCAGUUGGCCACCUUCCUGGCAGGC` — result for “RBNS enrichment (R)”: 0.308.
`GACAAGAAAUCCUAGUGGCCUCCCAGACUGCAGGGUCCCCAAGGAUGGAAAGGGAAUGUUCUGCUGGUUCUACCCUGUUUGUUGUGUCUUGCUAUACAGAAAAACCACAU` — result for “RBNS enrichment (R)”: 3.02.
For `CUGGAAAAUGUGAAAGCAUAUUUAGAUUUUAUAUACUAUCUGAAAUGUGAUUUGUUAAGAUUCUUAAAUUUGGGCCUCUUAGAAUAAUUUUGAAUGAGAUCUACCGACUC`, “RBNS enrichment (R)” read 0.394.
Under “RBNS enrichment (R)”, `UUCUCAUUCUACAUAUAAUUUUGUUUAUUUCAGAUAAUUUUAUGUAAACAAAUUAAGAGUUAUUCAUUCAAAUUUUUUGCAGUGUUAAUCUGUAAAUGAUGGCUUGAUGU` is recorded as 0.857.
Under “RBNS enrichment (R)”, `CAUGCAAGAGGUAGGGGGGUAAAGAAUAAGUAGUCCUAUCAAUCAGGUAUAAGUUGUUUCAAGAGAGAAGAUUCACCAAAACUUGGAUCUCACCCCAUUCCAAACCCAAC` is recorded as 1.61.
Under “RBNS enrichment (R)”, `AGGAUUCAGAGUAAAACUCAAAGGAUUCAGUUUGAGCCUAGAAUGAUGGUUAGACUUGUAGUCACUGGGCUUUUGUUUUGCUUUAUGGAAAUCAUUGAAGGUCUGGAUCC` is recorded as 1.98.
Under “RBNS enrichment (R)”, `AGACAAGGAAGCCUCACCUGGCUUUGACCUGCCAUCCGUUGCUGAGGCCACUGGCUUCCAUCCUAAGAAUGAGGUGCAACAAGACCCCAUUCUCACAGAACCUCAAAGAC` is recorded as 0.206.
Under “RBNS enrichment (R)”, `CUAGGUUCUUACUGACUGCUUUCUCCAGCUGUUCACAGCAGAUGCUUGGAUUUUAUGCAGUAGGCUUUACUACAGUACAUGGCUAAUCUUCCCCAAACUAGCUCAUUAAA` is recorded as 0.44.
`CAGAGGAGUUUGAUAAUGUGCACGAGGGCACACUGCUAGUAAAUAACAUUAAAAUAACUGGAAUGAACUCCUGAUCCCAAAGCCUAUUGUGUUUUCAACACAAGGUAAUA`: “RBNS enrichment (R)” 2.21.
Under “RBNS enrichment (R)”, `GGGACAGAUGUUCUGAACCUGGACCACAGGCCUUCCUGCUAGGCUUGCAGCCCACGGUGCACAUCUGCGCACACCCUCACUGAGGACUGAGUGCUGUUGGUACACGGAGC` is recorded as 0.263.
Under “RBNS enrichment (R)”, `GUAAGUUAACAGCCAGAGACAGACACUGUGCAGGCAUUGCAAAUAGAUGGAAUUACAGCAAAAUGUGCUCAAUGUAUGUGUCUGCUCACAACACUGGGAGAUGUGUUUGC` is recorded as 0.566.

Sample 2 — method: protein binding microarray; molecule type: double-stranded DNA, one strand shown; sample: in vitro; tested at: not given; baseline: not given; direction: higher = stronger binding
Target: Histone acetyltransferase KAT6A, winged helix 2, GST fusion (KAT6A, Homo sapiens, UniProt Q92794, residues 85-181)
Notes: 8-mer, flanks averaged, mean of 2 arrays, mostly near background
Construct (chain): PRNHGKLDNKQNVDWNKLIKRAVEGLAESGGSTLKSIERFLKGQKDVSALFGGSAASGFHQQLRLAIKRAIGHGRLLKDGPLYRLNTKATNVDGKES
For `GTCTCCGA`, the E-score was 0.157.
For `GCACCCGC`, the E-score was 0.237.
The E-score of `ATAGGGAC` is reported as -0.0621.
With `GATATACC` the E-score was 0.0465.
`GATCATCA` has an E-score of -0.0404.
`CGATCAAG` gave an E-score of 0.0175.
With `AGCTGGTC` the E-score was 0.142.
The E-score of `CTATGTGA` is reported as -0.122.
With `ACGGTAAC` the E-score was -0.108.
With `ATAATGAT` the E-score was 0.0889.
`ACTACAAG` has an E-score of -0.0276.
With `GCTAGACC` the E-score was -0.127.
With `AAGTCCTA` the E-score was -0.202.
The E-score of `CGGAAGGA` is reported as 0.0918.
`AAAGACAG` gave an E-score of 0.151.
`ACGGTGGG` gave an E-score of -0.0198.
With `GTAAGATA` the E-score was 0.0809.
For `TGTGCCAA`, the E-score was 0.0836.
`GCGCTTTA` has an E-score of 0.169.
`CCGCTGCA` has an E-score of 0.0926.
With `AAGCCAGA` the E-score was 0.0506.
`AGTCACTC` gave an E-score of -0.0528.

Sample 3 — method: RNA Bind-n-Seq; molecule type: RNA; sample: in vitro; tested at: not given; notes: RNA with constant flanks, ends assumed; baseline: input RNA pool; direction: higher = stronger binding
Target: RING finger protein unkempt homolog, zinc fingers 1-6, GST-SBP tag (UNK, Homo sapiens, UniProt Q9C0B0, residues 30-357)
Sequence of UniProt Q9C0B0 (30-357, looked up): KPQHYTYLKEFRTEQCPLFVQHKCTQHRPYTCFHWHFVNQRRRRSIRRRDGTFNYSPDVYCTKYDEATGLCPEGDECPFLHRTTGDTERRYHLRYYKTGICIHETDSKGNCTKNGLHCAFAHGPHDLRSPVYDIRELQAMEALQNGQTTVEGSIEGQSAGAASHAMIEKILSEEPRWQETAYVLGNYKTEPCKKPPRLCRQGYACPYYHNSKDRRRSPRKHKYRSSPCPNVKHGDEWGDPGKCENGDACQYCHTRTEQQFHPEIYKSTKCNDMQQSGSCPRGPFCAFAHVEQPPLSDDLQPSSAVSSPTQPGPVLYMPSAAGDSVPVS
Constant ends, left off below: GGGAGUUCUACAGUCCGACGAUC … CAACAGAGGAUUGAGCAUCA
For `ACUCCCCUCCCUCUAACAGCAGGCUGUGUGGGUUUCAAUUCCCAUCCUUCCCACCCCGGCCCGGUGUCGUCCACCCUGUAUCCUGUGUCUGAGUGUGUGUGGGGGGGUUCUGUACUAAUU`, the bound/input enrichment was 0.296 ratio.
`AACAGGCACCCCCAGCUCACAUCACCAGCUCAUCCUUUGGUAGCCAUAGCAGCCCCAACUUCCGCCCCCACUCAUCCCUCCGGGGGCUUGCCUUUCCUUGACAGUUUGGGGGUCUGCCUG` gave a bound/input enrichment of 0.157 ratio.
`AGGAGGAGGUUUGCAUCACGGAUCAUAGAUAGCCUGUUUAAUACAGUGACCGAUAAGAAGACCGCUAUCUUGGGGUUUGCAUUCAAAAAGGAUACUGGUGAUACCAGAGAAUCCUCCAGU` gave a bound/input enrichment of 0.239 ratio.
With `CUCAGCCCAGGGCCCCAAAUCAACGUGCUGGAAGAUCCAGACUACCUAGAUCUCACACAAACCGAAGCAAGCAAACCUCACAGUACCCAAUUUUUGCCACCAGUUGAGAUGAUUGGUCCU` the bound/input enrichment was 0.2 ratio.
`GGUGAAGUUCAGUUGGUUCGUCAUAAGGCAUCACAGAAGGUUUAUGCAAUGAAGCUUCUCCGUAAAUUUGAAAUGAUAAAAAGAUCAGAUUCUGCUUUUUUCUGGGAAGAAAGAGAUAUU` gave a bound/input enrichment of 0.213 ratio.
`AUCUAAACUUAGAUGGAGUUGGUCCAAUGAGGGAACAUCUGGGUUAUGCCUUUUUUAAAGCCGCUUUCCGGAACUGUCAGCAUGUUGUUGUUGAAGUGUGGAGCUGUAACUCUGCGUGGA` gave a bound/input enrichment of 0.209 ratio.
For `AACACGAUUCCCAGUUUCUUCAACUGGUUCUCAGACCACAGCCUCCUAGAAUUCGACAGAACCGCUGAAAUUAUCAAAGGGGAGCUGUGGUCCAAUCCCCUACAAUACUAUCUGAUGGGC`, the bound/input enrichment was 0.245 ratio.
`AGGUUUCCGGUUCCGGUGUAACGUUCGGGCUCCGUCUCAGGGGCUGAAGUUUGUGAGGUGCCGUAUUGAGUCCUGUUUGAGCUAUUGUUCUCUUUUUCCUGAAAAAUGGCACUGUCAAAG` has a bound/input enrichment of 0.144 ratio.
`GCCCGCCGUCCCGACCCCAGCCCCACCCAAGAUGUCAGAGGAUCUAGCAAAACAGUUGGCCCGCUACAAAGCUCAACUCCAGCAAGUAGAAGCUGCCCUUUCUGGAAAUGGAGAAAAUGA` gave a bound/input enrichment of 0.22 ratio.
`UGUGUCAUCCGAUGCUUAGUAAAGAAAAGAGCUCUUAUUGCAGGAGGUGGUGCUCCAGAAACCGAGCUGGCCCUCAGACUGACAGAGUACUCCCGAACACUGAGUGGUAUGGAGUCCUAC` gave a bound/input enrichment of 0.16 ratio.
With `UCCAUGUCAGAAGACAAUCGCCCUUUAACUGGACUUGCAGCUGCAAUUGCCGGAGCAAAACUCCGGAAAGUGUCACGGAUGGAGGAUACCUCUUUCCCAAGUGGAGGGAAUGCUAUUGGU` the bound/input enrichment was 0.123 ratio.

Sample 4 — method: RNA Bind-n-Seq; molecule type: RNA; sample: in vitro; tested at: 200 nM; notes: whole 134-nt RNA, ends assumed; together with: 150 mM LiCl; baseline: input library; direction: higher = stronger binding; each molecule: 7-deaza-guanosine replaces G
Target: Fragile X messenger ribonucleoprotein 1, C-terminal low-complexity region (Fmr1, Mus musculus, UniProt P35922)
Constant ends, left off below: GGGAGUUCUACAGUCCGACGAUC … UGGAAUUCUCGGGUGUCAAGG
The log2 enrichment of `CUCAAGUCCUGUGCUACACAUCGUAUGUACCGAAUCGGGUUGGGUUGGUUGGGAAAGUAUUAUGUUACGCCGUUCGGAUCUGCACUUCCA` is reported as 0.374.
For `CCUGUGCUACACAUCGUAUGUACCGAAUCGGGGCCCCCCGGGCCCCCCGGGGCCCCCCGGGAAAGUAUUAUGUUACGCCGUUCGGAUCUG`, the log2 enrichment was -2.33.
With `UAACUUUAGAGGAGGAUCUGAUGGAUAUGGCAGUGGACGUGGCUUUGGGGAUGGCUAUAAUGGGUAUGGAGGAGGACCUGGAGGUGGCAA` the log2 enrichment was -0.0417.
`CAAGUCCUGUGCUACACAUCGUAUGUACCGAAUCGGGCCCGGGGCCCGGCCCGGGAAAGUAUUAUGUUACGCCGUUCGGAUCUGCACUUC` gave a log2 enrichment of -2.63.
With `UAGUUUAUGCCAACGUGACUUCAUUCAUACAGAUGAACCAAGGAUCGGGAUAGCAGUAUAAAAUUAGAAUCAAGACAGCUGACUGCUCAG` the log2 enrichment was -3.75.
`CAAGUCCUGUGCUACACAUCGUAUGUACCGAAUCGGCCCCGGCCCCGGGGCCCCGGAAAGUAUUAUGUUACGCCGUUCGGAUCUGCACUU` gave a log2 enrichment of -3.09.
With `GCAGGAAGUAAAAACAAAUGGAAAUGCUUCGGAUAGUGGCAGGGGUGGGGGUUGCUAAGGAAAGGGUGGGAUUGGAGUGGGUAAAGAGUU` the log2 enrichment was 1.33.
With `CACAGACAACACGCACCCACACAGACACAGAGGGAAGGGGUCGGGAUGGGGACAGGGUGCACAGCAGGGCGGGGUAGGACCCCAGCCCCU` the log2 enrichment was -0.279.
With `UCCUGUGCUACACAUCGUAUGUACCGAAUCGGGAAAAAGGGAAAAAAAGGGAAAAAGGGAAAGUAUUAUGUUACGCCGUUCGGAUCUGCA` the log2 enrichment was 0.508.
`ACCAUGCAGGUGGGCAUCUUUGGGAAGUGGCGCAAGGGGGGGAUAGGGAGGGGGGUAACACUUUGGGAACAGGUGGUCCCAGGUCGUUUC` gave a log2 enrichment of 1.47.
For `CCAGAGCCAGAGAGCUUGGGCCCUGGGACGCCUGGGUUCCCCGAGCAGGAGGAAGACGAACUUCACCGCACCCUGGGCGUGGAGCGGUUU`, the log2 enrichment was -3.18.

Some of these lines once more (sample 2):
The E-score of `ATAGGGAC` is reported as -0.0621.
With `GATATACC` the E-score was 0.0465.
`GATCATCA` has an E-score of -0.0404.
`CGATCAAG` gave an E-score of 0.0175.
With `AGCTGGTC` the E-score was 0.142.
The E-score of `CTATGTGA` is reported as -0.122.
With `ACGGTAAC` the E-score was -0.108.
